Published values collected from several papers.
Each numbered part is a random draw from the data of one study; scales do not carry over between parts. Changes are numbered by the printed parent chain.
UniProt P11802, sequence (whole entry, looked up): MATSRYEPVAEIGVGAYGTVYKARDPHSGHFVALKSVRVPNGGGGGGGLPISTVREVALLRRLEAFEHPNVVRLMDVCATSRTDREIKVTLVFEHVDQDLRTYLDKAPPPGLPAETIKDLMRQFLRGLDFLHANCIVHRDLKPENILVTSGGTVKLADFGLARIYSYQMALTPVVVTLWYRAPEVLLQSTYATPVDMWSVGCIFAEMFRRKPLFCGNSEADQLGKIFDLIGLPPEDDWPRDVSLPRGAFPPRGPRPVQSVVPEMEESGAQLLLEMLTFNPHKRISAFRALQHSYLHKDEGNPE

Block 1
Target: Histone acetyltransferase KAT6A, winged helix 1, GST fusion (KAT6A, Homo sapiens, UniProt Q92794, residues 1-85)
Technique: protein binding microarray
Molecule type: double-stranded DNA, one strand shown
Matrix: in vitro
Concentration: not given
Setting: 8-mer, flanks averaged, mean of 2 arrays, mostly near background
Baseline: not given
Direction: higher = stronger binding
Target sequence (chain): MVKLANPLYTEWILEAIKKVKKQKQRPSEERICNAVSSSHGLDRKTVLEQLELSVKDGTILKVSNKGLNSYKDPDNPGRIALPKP
Oligonucleotide | E-score
AGCGCACT | 0.235
GCTTGTCA | -0.0652
TCTACAGA | -0.089
CCAATGTA | -0.128
AACTTAGT | 0.0113
AACTGCCA | -0.156
CGCAGGCA | 0.173
ATACAACC | 0.21

Block 2
Target: CCND3, cyclin fold, Cln2 fusion (human)
Technique: yeast growth competition, sequencing
Matrix: yeast
Setting: weak parent motif
Baseline: not given
Direction: higher = stronger binding
Parent: BRCA2 docking peptide (human); PSIKRNLLNEFDR; partner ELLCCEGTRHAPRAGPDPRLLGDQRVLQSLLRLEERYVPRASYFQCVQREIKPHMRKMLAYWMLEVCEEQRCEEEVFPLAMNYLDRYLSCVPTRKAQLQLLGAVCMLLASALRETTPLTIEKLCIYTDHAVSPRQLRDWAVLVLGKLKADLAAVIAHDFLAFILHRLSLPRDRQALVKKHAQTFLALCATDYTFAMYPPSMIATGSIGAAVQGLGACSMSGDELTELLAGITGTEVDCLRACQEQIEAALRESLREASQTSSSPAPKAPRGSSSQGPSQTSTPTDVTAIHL
Substitution | normalised enrichment score
PSIKTNLLNEFDR [R5T] | 0.0417
PSIKRNLWNEFDR [L8W] | 0.0527
PSIKRNLLNEFAR [D12A] | 0.235
PSIWRNLLNEFDR [K4W] | -0.0659
PSIKRNPLNEFDR [L7P] | 0.0674
PSIKRNLLQEFDR [N9Q] | 0.159
PSIKRNLLNFFDR [E10F] | 0.153
PSEKRNLLNEFDR [I3E] | 0.126

Block 3
Target: Interferon regulatory factor 5, full length, phosphomimetic (IRF5, Homo sapiens, UniProt Q13568-2, residues 1-514, K96S/S451D/S453D/S456D/S462D)
Technique: protein-binding microarray
Molecule type: double-stranded DNA, one strand shown
Matrix: in vitro
Concentration: 250 nM
Setting: 60-bp whole probe
Added: salmon DNA 0.4 mg/ml
Baseline: random background probes
Direction: higher = stronger binding
All sequences stand within: GCCTAGCAC … GTCTTGATTCGCTTGACGCTGCTG
Oligonucleotide | log fluorescence [z-score]
TTAGGACTGGGGCTTCGGTTAGTGCTA | -0.0719
TTAGGACCGGGGTATCGGTTAGTGCTA | 2.6
GACGAACGGAGACTGGAGACGTGCTAG | -0.442
TCAGTTCCCTATATAAGACTGTGCTAG | 0.254
TTAGGTATCCTTATCCTTCAGTGCTAG | 0.317
TTAGATTTAGGGTATCGATTAGTGCTA | 2.01
GACGGTATCGACTATCGGGCCGTGCTA | 3.65
TTAGGTTTCCTAATCCTTTAGTGCTAG | 0.52

Mixed results
SMILES | target | test | setting | how to read | quantity | value
CN(C)S(=O)(=O)c1ccc2c(c1)/C(=C/c1cc3c([nH]1)CCCC3)C(=O)N2 | Cyclin-dependent kinase 4, with cyclin D3 (CDK4, Homo sapiens, UniProt P11802) | enzyme activity, inhibitor | 0.5 µM | baseline: control | remaining activity | 99.1%

Repeated from above (mixed results):
SMILES | target | test | setting | how to read | quantity | value
CN(C)S(=O)(=O)c1ccc2c(c1)/C(=C/c1cc3c([nH]1)CCCC3)C(=O)N2 | Cyclin-dependent kinase 4, with cyclin D3 (CDK4, Homo sapiens, UniProt P11802) | enzyme activity, inhibitor | 0.5 µM | baseline: control | remaining activity | 99.1%
